Experimental data from different studies.
A part holds a random share of what one study measured.

Sample 1 — method: RNA Bind-n-Seq; molecule type: RNA; medium: in vitro; tested at: 365 nM; reference: no-protein control; reading: higher = stronger binding
Target: RNA binding protein fox-1 homolog 2, RRM domain, GST-SBP tag (RBFOX2, Homo sapiens, UniProt O43251-10, residues 100-194)
Setting: natural RNA segment, single round, ends assumed
All sequences stand within: GGGAGUUCUACAGUCCGACGAUC … UGGAAUUCUCGGGUGCCAA
| Sequence | RBNS enrichment (R) |
| --- | --- |
| UCACCUGAUAGUAGAAUAUUAGAAUCUUAUUUUUUAAAUGUCUUCAGGGAACUGAGCAAAUGUUUGUUGUUUUUUUUUUUCCUGAUGUUUUCUUGAAAAGCCUUUCUCUU | 1.26 |
| UGAGAGGGAAAGUCUAGUAUCAAUUCUUCUGUUUGCUCGCAAUGACACAAAUAGGUUUUGGGGAUCUACCUAAGGGAUAGGUCUACUCCAAAAUUAUUAAAUUUAUAAUU | 0.404 |
| UAGCCCAGGCCAAGGUAAAGUUAGUUAAUAGCAUUGGGAUAUAGUCACUGUAAUGGUGCUAUUAACAAACAGUCAACACCAUUGUAUUUUUUAACUUCGUGUUCUGUAUC | 0.479 |
| AUUAAAACAUGAACCUCAUUUUAGAAAUCGACAGCUAUGGUAUUUUUUUAAUGAUCAGCUUUUCUGUUUAUUGUAAAACUAAGUUAAAAAAUAAAAGGUUAAUGAGAAAU | 0.988 |
| CUACCACAGAUGCCUGAAGAAGUUCCUCACUAUCUGCAAAUGUGGCUCUCAGGCCCUUCCUGAUGUGAUGAAUGAAUCUACUAAUCAUUUCUUGACCAUUCAUUUUAUCA | 0.384 |
| UGAUUAAGCCAUGCCAGAUGGUCUUUGGUGCACACAGUUAUUUAAGAAUCCACUUCCACAGGUGGCUGCCCUUGUAAGGAAGAAUGCAUCCCUAAAUGUGGCCACCAGAG | 2.15 |
| GUACAGAAACAGCCCCCGAAACCCACGCUUCUGAUUUACAGAAUCAGGUUCCUGUGAUGCAGGCUGACAGCCAGGGAGCACAACAGAUGCUGGACAAAGAUGAAAGCGAC | 0.373 |
| AGGCGGGGCCCUCGGGAGCCCAGGUGCAGAGCGAGGCCGUGUCCAGGAGCCGGCGUCCCUCAGUGCCCCGUGCACCCGCGGCCGCGGCCUCCCAGGCAGUGCUCAUGCGC | 0.431 |

Sample 2 — method: protein-binding microarray; molecule type: double-stranded DNA, one strand shown; medium: in vitro; tested at: 250 nM; setting: 60-bp whole probe; added: salmon DNA 0.4 mg/ml; reference: random background probes; reading: higher = stronger binding; all sequences stand within: GCCTAGCAC … GTCTTGATTCGCTTGACGCTGCTG
Target: Interferon regulatory factor 5, full length, phosphomimetic (IRF5, Homo sapiens, UniProt Q13568-2, residues 1-514, K96S/S451D/S453D/S456D/S462D)
| Sequence | log fluorescence [z-score] |
| --- | --- |
| TTCTTTATGCACTCTCTACATGTGCTA | 0.888 |
| TTAGATATCGGTTTCGGTTAGTGCTAG | 10.6 |
| GACCATCTCAGTATCGAGACGTGCTAG | 1.67 |
| TTAGGTCTCGGTTTCGGTTCGTGCTAG | 7.9 |
| AACGGTATCGGTCTCGGGACGTGCTAG | 5.72 |
| TTCATTATTGCTTCCTCTTTGTGCTAG | 1.35 |
| CTCACTCTAATCTCACTCTGTGTGCTA | 0.464 |
| TTAGGTTTCGGTCTCAGTTAGTGCTAG | 9.99 |
| GACGGACTGGTTTTCCTGACGTGCTAG | -0.388 |
| TTAGGACTGGGCCTCGGTTAGTGCTAG | -0.569 |
| GACGGTTTCAGTTCCGAGACGTGCTAG | 2.99 |
| TCACTTTTATTTTTTTTACTGTGCTAG | 1.57 |
| GACGGTCTCCTTTTCCTGCCGTGCTAG | 0.136 |
| AAGTTTTTATTTTCTGAATGGTGCTAG | 1.95 |
| TCATTTTTGCTTTCTTTACTGTGCTAG | 3.01 |
| TTAGGACTGGACTTGCGGTTAGTGCTA | 0.512 |
| TTAGGACTGCGTTTCCTTTAGTGCTAG | -0.123 |
| TCAATTTTCTAAATTCCACTGTGCTAG | 0.705 |
| TGAGAACTGAGTATCGATTAGTGCTAG | 6.5 |

Sample 3 — method: protein binding microarray; molecule type: double-stranded DNA, one strand shown; medium: in vitro; tested at: not given; reference: not given; reading: higher = stronger binding
Target: Histone acetyltransferase KAT6A, winged helix 2, GST fusion (KAT6A, Homo sapiens, UniProt Q92794, residues 85-181)
Setting: 8-mer, flanks averaged, mean of 2 arrays, mostly near background
Construct (chain): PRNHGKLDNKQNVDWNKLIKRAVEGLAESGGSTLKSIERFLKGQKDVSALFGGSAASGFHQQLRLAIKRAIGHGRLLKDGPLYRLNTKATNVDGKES
| Sequence | E-score |
| --- | --- |
| GAACCCGC | -0.0411 |
| GCGGGAGA | 0.173 |
| GTACTCGA | -0.156 |
| CGGATTTC | 0.105 |
| TACTGGGA | 0.0349 |
| CGCTTGAA | 0.115 |
| TCGTACGA | -0.0355 |
| GACCTCTA | 0.0329 |
| CCCCGAAG | 0.109 |
| AATTTTTA | 0.0497 |
| CAATTCTG | 0.034 |
| AGGGAGTA | -0.164 |
| TATAAGCA | -0.0029 |
| CAGCAATG | -0.0168 |
| ACAGTAGC | -0.0465 |
| TCAAGGCA | 0.0106 |
| ATACGACG | 0.0176 |
| ATTACCGC | 0.0532 |
| AGAAACGC | 0.0643 |
| GAGAGGGA | -0.125 |
| ACCAACCA | 0.0199 |
| CACGGTCC | -0.153 |
| CGGTTATA | -0.154 |
| AGTTGAAG | -0.106 |
| GACACCCC | -0.2 |

Sample 4 — method: universal PBM; molecule type: double-stranded DNA, one strand shown; medium: in vitro; tested at: not given; reading: higher = stronger binding
Target: Sal-like protein 4, full length isoform B (SALL4, Homo sapiens, UniProt Q9UJQ4-2, residues 1-616)
Setting: 8-mer, flanks averaged, mean of replicates
| Sequence | E-score |
| --- | --- |
| ATTTCGCA | 0.0882 |
| GTACCTCA | 0.0109 |
| ACCATGAG | -0.0122 |
| CTAACCGC | -0.13 |
| GAGGATGC | -0.259 |
| GAAACATA | 0.245 |
| ATTTATTA | 0.438 |
| ACGCCTAA | 0.0324 |
| CGAGGGAG | -0.219 |
| ATAAACCC | 0.138 |
| AGGCCCCT | -0.294 |
| TCTCCGCA | -0.178 |
| TGAAATCA | 0.229 |
| GATCCTGA | -0.0859 |
| TGATCACA | 0.0544 |
| ACGTGCAA | -0.0141 |
| CTAAGTCC | -0.211 |
| ACGTAAGG | 0.104 |
| TAGGGGGA | -0.0694 |
| ACGGAGTC | -0.114 |
| ACCAGGAA | -0.112 |
| ACAGTACA | 0.145 |
| AGGACAGA | -0.0148 |
| ACCTATGC | 0.0562 |
| GAAAATGA | 0.199 |

A few entries again (sample 3):
| Sequence | E-score |
| --- | --- |
| GACCTCTA | 0.0329 |
| GAGAGGGA | -0.125 |
| GAACCCGC | -0.0411 |
| ATTACCGC | 0.0532 |
| ACCAACCA | 0.0199 |
